Measured values collected from several papers.
Compare with care: the assays were run in different laboratories. Several values in a cell are separate wells, animals, samples, runs or records. Numbers after ± are the reported error.
ADORA1: Adenosine receptor A1 (ADORA1, Homo sapiens, UniProt P30542)
Chain of UniProt P30542 (whole entry, looked up): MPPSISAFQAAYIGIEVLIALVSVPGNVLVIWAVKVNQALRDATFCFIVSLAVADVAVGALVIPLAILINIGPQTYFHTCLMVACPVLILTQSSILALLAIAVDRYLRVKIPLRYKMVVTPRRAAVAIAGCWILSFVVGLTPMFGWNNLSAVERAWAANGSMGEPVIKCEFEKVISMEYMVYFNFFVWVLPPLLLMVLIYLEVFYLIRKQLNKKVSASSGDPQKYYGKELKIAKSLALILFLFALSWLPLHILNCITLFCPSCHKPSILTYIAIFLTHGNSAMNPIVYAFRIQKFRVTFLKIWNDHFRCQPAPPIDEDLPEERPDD
ESR2: Estrogen receptor beta (ESR2, Homo sapiens, UniProt Q92731)
Chain of UniProt Q8NH00 (whole entry, looked up): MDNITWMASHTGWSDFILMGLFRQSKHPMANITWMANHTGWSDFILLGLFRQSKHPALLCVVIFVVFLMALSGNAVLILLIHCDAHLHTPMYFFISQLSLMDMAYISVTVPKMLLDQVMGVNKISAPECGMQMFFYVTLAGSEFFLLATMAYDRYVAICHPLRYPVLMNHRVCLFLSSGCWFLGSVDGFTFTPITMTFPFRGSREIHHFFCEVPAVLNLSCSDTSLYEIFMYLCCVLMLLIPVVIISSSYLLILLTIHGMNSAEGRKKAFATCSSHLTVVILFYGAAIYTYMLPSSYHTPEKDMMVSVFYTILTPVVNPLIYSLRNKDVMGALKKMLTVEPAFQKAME
Chain of UniProt Q92731 (whole entry, looked up): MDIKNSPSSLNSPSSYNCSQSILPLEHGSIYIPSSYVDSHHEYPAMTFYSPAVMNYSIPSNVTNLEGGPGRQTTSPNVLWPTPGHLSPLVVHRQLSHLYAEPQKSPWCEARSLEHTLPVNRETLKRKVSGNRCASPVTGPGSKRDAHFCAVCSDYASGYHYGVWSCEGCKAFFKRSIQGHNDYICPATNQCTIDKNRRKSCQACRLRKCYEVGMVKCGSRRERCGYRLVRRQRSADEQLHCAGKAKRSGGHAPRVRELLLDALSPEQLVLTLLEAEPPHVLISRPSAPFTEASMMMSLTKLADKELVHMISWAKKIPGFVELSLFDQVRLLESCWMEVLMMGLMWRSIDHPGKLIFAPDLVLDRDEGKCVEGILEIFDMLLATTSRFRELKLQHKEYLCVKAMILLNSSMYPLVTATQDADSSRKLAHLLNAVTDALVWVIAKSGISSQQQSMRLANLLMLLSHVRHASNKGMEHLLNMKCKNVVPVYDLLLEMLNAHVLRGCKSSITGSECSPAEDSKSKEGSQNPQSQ
Chain of UniProt Q16581 (whole entry, looked up): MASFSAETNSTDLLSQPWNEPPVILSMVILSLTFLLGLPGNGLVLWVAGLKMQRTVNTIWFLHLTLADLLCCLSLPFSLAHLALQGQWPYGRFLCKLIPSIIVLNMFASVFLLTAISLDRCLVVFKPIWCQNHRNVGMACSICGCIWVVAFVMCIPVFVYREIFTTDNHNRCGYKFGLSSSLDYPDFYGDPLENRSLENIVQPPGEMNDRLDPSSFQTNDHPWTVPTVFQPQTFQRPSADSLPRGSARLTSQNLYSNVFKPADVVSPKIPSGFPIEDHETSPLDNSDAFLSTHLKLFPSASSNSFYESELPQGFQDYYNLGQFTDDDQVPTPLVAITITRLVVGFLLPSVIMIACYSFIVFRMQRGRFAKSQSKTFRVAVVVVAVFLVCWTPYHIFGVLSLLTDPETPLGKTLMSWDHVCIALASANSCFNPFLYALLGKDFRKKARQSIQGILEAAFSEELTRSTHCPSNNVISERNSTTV
Chain of UniProt Q61143 (whole entry, unmodified, looked up): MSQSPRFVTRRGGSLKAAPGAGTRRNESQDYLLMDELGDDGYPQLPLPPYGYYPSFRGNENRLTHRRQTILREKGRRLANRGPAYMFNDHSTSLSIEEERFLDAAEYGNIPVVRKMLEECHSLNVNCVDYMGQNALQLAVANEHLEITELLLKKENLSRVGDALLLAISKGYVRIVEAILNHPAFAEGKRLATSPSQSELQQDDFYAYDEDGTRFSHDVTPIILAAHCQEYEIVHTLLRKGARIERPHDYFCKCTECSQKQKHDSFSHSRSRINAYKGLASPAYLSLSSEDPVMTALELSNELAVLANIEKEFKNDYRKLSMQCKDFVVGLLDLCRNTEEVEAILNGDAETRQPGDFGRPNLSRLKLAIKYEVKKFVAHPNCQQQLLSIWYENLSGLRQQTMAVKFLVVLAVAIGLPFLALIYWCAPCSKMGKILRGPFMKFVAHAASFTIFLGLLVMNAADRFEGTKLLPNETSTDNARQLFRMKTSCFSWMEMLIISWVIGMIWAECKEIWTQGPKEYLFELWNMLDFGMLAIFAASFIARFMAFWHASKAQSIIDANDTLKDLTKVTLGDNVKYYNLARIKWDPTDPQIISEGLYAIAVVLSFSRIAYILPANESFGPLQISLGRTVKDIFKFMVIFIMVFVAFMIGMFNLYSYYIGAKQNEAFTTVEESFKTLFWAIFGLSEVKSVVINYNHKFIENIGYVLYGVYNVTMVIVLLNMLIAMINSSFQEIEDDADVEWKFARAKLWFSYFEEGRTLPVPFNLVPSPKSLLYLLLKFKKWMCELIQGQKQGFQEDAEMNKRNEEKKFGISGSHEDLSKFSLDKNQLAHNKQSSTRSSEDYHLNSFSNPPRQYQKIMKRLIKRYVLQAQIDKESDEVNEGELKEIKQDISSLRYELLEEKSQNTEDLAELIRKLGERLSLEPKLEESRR
Chain of UniProt P35372 (whole entry, looked up): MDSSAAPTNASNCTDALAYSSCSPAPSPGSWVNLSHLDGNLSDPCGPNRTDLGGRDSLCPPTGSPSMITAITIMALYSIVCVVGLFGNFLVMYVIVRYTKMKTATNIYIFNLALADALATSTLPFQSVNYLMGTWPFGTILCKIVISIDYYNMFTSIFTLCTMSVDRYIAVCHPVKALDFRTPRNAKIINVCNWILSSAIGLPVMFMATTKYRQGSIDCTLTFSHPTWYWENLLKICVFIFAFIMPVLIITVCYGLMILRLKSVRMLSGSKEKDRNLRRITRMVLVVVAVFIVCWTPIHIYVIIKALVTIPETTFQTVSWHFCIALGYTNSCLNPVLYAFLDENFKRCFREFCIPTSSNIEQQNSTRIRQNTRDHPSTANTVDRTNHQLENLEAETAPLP
Chain of UniProt P41968 (whole entry, looked up): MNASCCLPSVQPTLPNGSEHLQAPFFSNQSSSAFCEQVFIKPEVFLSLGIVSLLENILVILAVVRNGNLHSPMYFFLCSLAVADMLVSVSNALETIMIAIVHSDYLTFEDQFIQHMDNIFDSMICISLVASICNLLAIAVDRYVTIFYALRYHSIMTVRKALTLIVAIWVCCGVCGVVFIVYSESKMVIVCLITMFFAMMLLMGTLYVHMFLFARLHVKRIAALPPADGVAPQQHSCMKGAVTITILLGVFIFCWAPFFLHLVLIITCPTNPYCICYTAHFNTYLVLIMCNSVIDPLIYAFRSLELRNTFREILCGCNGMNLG
Chain of UniProt Q9UNQ0 (whole entry, looked up): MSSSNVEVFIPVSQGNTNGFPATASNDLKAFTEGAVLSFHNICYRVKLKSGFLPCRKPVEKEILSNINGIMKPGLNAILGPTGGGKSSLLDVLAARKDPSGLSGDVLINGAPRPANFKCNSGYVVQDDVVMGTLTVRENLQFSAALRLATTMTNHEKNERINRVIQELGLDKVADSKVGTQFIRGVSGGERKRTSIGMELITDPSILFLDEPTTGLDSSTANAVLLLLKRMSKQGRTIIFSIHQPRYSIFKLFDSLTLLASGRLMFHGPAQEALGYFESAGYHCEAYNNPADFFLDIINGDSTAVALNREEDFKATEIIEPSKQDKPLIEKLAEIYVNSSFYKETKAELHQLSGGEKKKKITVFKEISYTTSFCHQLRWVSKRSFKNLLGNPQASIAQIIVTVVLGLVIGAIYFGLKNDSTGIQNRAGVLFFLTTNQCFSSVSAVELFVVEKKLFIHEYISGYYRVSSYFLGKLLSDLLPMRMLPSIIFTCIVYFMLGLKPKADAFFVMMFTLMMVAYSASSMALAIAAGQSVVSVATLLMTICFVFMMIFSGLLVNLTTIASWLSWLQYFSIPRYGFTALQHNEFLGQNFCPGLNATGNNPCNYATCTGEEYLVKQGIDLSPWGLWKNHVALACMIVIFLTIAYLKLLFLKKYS
Chain of UniProt P07550 (whole entry, looked up): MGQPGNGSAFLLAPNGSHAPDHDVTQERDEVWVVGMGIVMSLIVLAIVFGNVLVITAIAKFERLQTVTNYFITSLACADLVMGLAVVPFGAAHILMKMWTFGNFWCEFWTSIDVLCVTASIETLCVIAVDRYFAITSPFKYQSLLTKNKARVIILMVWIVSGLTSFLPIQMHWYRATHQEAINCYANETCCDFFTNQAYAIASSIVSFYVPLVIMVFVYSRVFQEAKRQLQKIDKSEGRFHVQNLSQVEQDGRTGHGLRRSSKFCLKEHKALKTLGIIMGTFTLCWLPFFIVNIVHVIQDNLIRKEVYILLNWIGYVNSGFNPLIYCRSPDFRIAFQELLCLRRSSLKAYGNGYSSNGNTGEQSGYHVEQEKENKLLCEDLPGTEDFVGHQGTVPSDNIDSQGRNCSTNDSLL
Chain of UniProt P48039 (whole entry, looked up): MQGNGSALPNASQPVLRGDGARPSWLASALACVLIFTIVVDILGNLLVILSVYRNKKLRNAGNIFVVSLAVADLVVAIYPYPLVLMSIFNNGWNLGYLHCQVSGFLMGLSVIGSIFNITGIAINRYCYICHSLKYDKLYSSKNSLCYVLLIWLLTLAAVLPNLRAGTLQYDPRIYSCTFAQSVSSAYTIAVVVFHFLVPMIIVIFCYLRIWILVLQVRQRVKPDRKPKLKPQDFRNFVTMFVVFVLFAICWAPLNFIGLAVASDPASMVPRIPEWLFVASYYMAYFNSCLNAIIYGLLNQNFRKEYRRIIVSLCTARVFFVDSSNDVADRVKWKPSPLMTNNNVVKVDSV

`CC/C(=C(\c1ccccc1)c1ccc(OCCN(C)CCCCCCC(=O)NCCCOc2ccc3[nH]cc(CCNC(C)=O)c3c2)cc1)c1ccccc1` gave an EC50 of 98 nM (MTNR1A (Homo sapiens, UniProt P48039); phosphorylation in cells, agonist, AlphaScreen).
The EC50 of `CCNC(=O)[C@H]1O[C@@H](n2cnc3c(NCCCCNC(=O)CCCCCNC(=O)COc4ccc(/C=C/C5=[N+]6C(=Cc7ccc(-c8cccs8)n7[B-]6(F)F)C=C5)cc4)ncnc32)[C@H](O)[C@@H]1O` is reported as 398 nM (ADORA1; CRE-SPAP reporter gene, agonist; CHO-A1; Gs enhancement, with: forskolin, pertussis toxin 100 ng/mL overnight).
With `CCCC[C@H](NC=O)C(=O)N[C@@H](CC(C)C)C(=O)N[C@@H](Cc1ccccc1)C(=O)O` the EC50 was 75 ± 5 nM (FPR1 (Homo sapiens, UniProt P21462, N192K); receptor surface downregulation, agonist; CHO cells; 1 h, 37 °C).
`N=C(N)NCCC[C@H](NC(=O)[C@H](CC(=O)O)NC(=O)[C@@H]1CSCC(=O)NCC(=O)N[C@@H](Cc2c[nH]cn2)C(=O)N[C@H](Cc2ccccc2)C(=O)N[C@@H](CCCNC(=N)N)C(=O)N[C@H](Cc2c[nH]c3ccccc23)C(=O)N1)C(=O)N[C@@H](Cc1ccccc1)C(=O)NCC(N)=O` has an EC50 of over 1000 nM (MC3R (Homo sapiens, UniProt P41968); cAMP, agonist).
The EC50 of `O=C(NCc1ccsc1)N1CCN(C(Cc2cccc(O)c2)c2ccccc2)CC1` (stereo not shown) is reported as 72 nM (OPRM1 (Homo sapiens, UniProt P35372); β-arrestin recruitment, agonist; U2OS with GRK2).
The EC50 of `O=C(CN1C(=O)c2ccccc2C1=O)c1ccc(O)cc1O` is reported as 1560 nM (ESR2; coactivator recruitment, agonist).
With `O=S(=O)(Oc1cccc(Br)c1)C1CC2OC1C(c1ccc(O)cc1)=C2c1ccc(O)cc1` (racemic) the EC50 was 300 nM (Estrogen receptor (ESR1, Homo sapiens, UniProt P03372); reporter gene, agonist, luciferase).
The EC50 of `O=C1CCCN1C1CCN(CC2CC(c3ccccc3)=NO2)c2ccccc21` (stereo not shown) is reported as 1640 nM (ABCG2 (Homo sapiens, UniProt Q9UNQ0); ATPase activity, activator; 20 min, pH 6.8, cell membranes).
`CC(C=O)Cc1ccc(C(C)(C)C)cc1` (stereo not shown) has an EC50 of 107000 nM and 110000 nM (Olfactory receptor 2T4 (OR2T4, Homo sapiens, UniProt Q8NH00); GFP reporter gene, agonist; yeast expressing OR2T4; 4 h, 1% DMSO).
`O=C(c1cc2c(s1)CCCCC2)N1CCC(n2c(=O)[nH]c3ccccc32)CC1` has an EC50 of 2930 ± 740 nM (Trpc6 (Mus musculus, UniProt Q61143, Y704W); channel activation, agonist, whole-cell patch clamp).
`CCNC(=O)[C@H]1O[C@@H](n2cnc3c(NCCCCCNC(=O)CCCCCNC(=O)COc4ccc(/C=C/C5=[N+]6C(=Cc7ccc(-c8cccs8)n7[B-]6(F)F)C=C5)cc4)ncnc32)[C@H](O)[C@@H]1O` has an EC50 of 589 nM (ADORA1; CRE-SPAP reporter gene, agonist; CHO-A1; Gs enhancement, with: forskolin).
For `CC(C)C[C@H](NC(=O)[C@@H](N)[C@@H](C)O)C(=O)N[C@@H](CCC(N)=O)C(=O)N1CCC[C@H]1C(=O)N1CCC[C@H]1C(=O)N[C@@H](C)C(=O)N[C@@H](CO)C(=O)N[C@@H](CO)C(=O)N[C@@H](CCCNC(=N)N)C(=O)N[C@@H](CCCNC(=N)N)C(=O)N[C@@H](CCCNC(=N)N)C(=O)N[C@@H](Cc1c[nH]cn1)C(=O)N[C@@H](Cc1ccccc1)C(=O)N[C@@H](Cc1c[nH]cn1)C(=O)N[C@@H](Cc1c[nH]cn1)C(=O)N[C@@H](C)C(=O)N[C@@H](CC(C)C)C(=O)N1CCC[C@H]1C(=O)N1CCC[C@H]1C(=O)N[C@@H](C)C(=O)N[C@@H](CCCNC(=N)N)C(=O)O`, the EC50 was 10.4 nM (C3AR1 (Homo sapiens, UniProt Q16581); cAMP, agonist, luciferase).
For `N#CC(=Cc1ccc(O)cc1)c1ccc(Cl)cc1Cl`, the EC50 was 130 nM (ESR2; coactivator recruitment, agonist).
The EC50 of `O=C(O)CN(CC(=O)O)[C@@H](CCCCNC(=O)CCCC(=O)NCCOCCOCCOCCOCCC(=O)NCCCNCC(O)c1cccc(O)c1)C(=O)O` (stereo partly shown) is reported as 160 nM (ADRB2 (Homo sapiens, UniProt P07550); cAMP, agonist, ELISA).
`CSCC[C@H](NC(=O)[C@H](CCCNC(=N)N)NC(=O)[C@H](CCCCN)NC(=O)[C@@H](N)Cc1c[nH]c2ccccc12)C(=O)N[C@H](C(=O)N[C@H](CCSC)C(N)=O)C(C)C` has an EC50 of over 6700 nM (FPR1 (Homo sapiens, UniProt P21462); binding, competitor; U-937; 4 °C, with: 5 nM WK(FL)YMVm).
`CC(C)C[C@H](NC(=O)[C@H](CC(C)C)NC(=O)[C@@H](Cc1ccc2ccccc2c1)NC(=O)[C@H](Cc1ccccc1)NC(=O)[C@@H](Cc1c[nH]c2ccccc12)NC(=O)[C@@H](N)CCCCN)C(N)=O` gave an EC50 of 229 nM (GHSR (Homo sapiens, UniProt Q92847); inositol phosphate, agonist, TR-FRET).

Repeated from above:
`CC/C(=C(\c1ccccc1)c1ccc(OCCN(C)CCCCCCC(=O)NCCCOc2ccc3[nH]cc(CCNC(C)=O)c3c2)cc1)c1ccccc1` gave an EC50 of 98 nM (MTNR1A (Homo sapiens, UniProt P48039); phosphorylation in cells, agonist, AlphaScreen).
The EC50 of `CCNC(=O)[C@H]1O[C@@H](n2cnc3c(NCCCCNC(=O)CCCCCNC(=O)COc4ccc(/C=C/C5=[N+]6C(=Cc7ccc(-c8cccs8)n7[B-]6(F)F)C=C5)cc4)ncnc32)[C@H](O)[C@@H]1O` is reported as 398 nM (ADORA1; CRE-SPAP reporter gene, agonist; CHO-A1; Gs enhancement, with: forskolin, pertussis toxin 100 ng/mL overnight).
